Assay results of several laboratories.
Protocols differ between the studies behind these lines. ± gives the spread as reported.
Cell line: HeLa

With CC[C@H](C)[C@@H]1NC(=O)[C@H](C)NC(=O)[C@H](C)NC(=O)[C@H]([C@@H](C)O)NC(=O)[C@H](Cc2ccccc2)NC(=O)[C@@H]2CSSC[C@@H]3NC(=O)[C@H](C(C)C)NC(=O)[C@H](CCCCN)NC(=O)[C@H](CO)NC(=O)[C@H](CCCCN)NC(=O)[C@@H]4CSSC[C@H](NC(=O)[C@H](CO)NC(=O)[C@H](CCC(=O)O)NC(=O)[C@H](C)NC(=O)[C@H](CSSC[C@H](NC(=O)CNC1=O)C(=O)N[C@@H](CO)C(=O)N4)NC(=O)[C@@H]1CCCN1C(=O)[C@H](Cc1ccccc1)NC(=O)CNC(=O)[C@H](CC(N)=O)NC(=O)[C@H](CCCCN)NC(=O)[C@H](Cc1ccc(O)cc1)NC3=O)C(=O)N[C@@H](C(C)C)C(=O)N[C@@H](Cc1ccc(O)cc1)C(=O)N[C@@H](CC(C)C)C(=O)N1CCC[C@H]1C(=O)N2 the CC50 was 1.29 ± 0.06 µM (resazurin; 24 h).
For CC[C@H](C)[C@@H]1NC(=O)[C@H](CCCCN)NC(=O)[C@H](CCCCN)NC(=O)[C@H](Cc2ccc(O)cc2)NC(=O)[C@H](CC(C)C)NC(=O)[C@@H]2CCCN2C(=O)[C@H](C)NC(=O)CNC(=O)CNC(=O)[C@H](CO)NC(=O)CNC(=O)CNC(=O)[C@H](CO)NC(=O)[C@H](CCC(=O)O)NC(=O)[C@H](CC(C)C)NC(=O)[C@H](CC(C)C)NC(=O)[C@H](CCCCN)NC(=O)[C@H](CCCCN)NC(=O)[C@H]([C@@H](C)CC)NC(=O)[C@H]([C@@H](C)CC)NC(=O)[C@H](CCCCN)NC(=O)[C@H](CCCCN)NC(=O)[C@H](Cc2ccc(O)cc2)NC(=O)[C@H](CC(C)C)NC(=O)[C@@H]2CCCN2C(=O)CNC(=O)CNC(=O)CSC[C@@H](C(N)=O)NC(=O)[C@H](CC(C)C)NC(=O)[C@H](CCCCN)NC(=O)[C@H](CCCCN)NC(=O)[C@H]([C@@H](C)CC)NC1=O, the CC50 was 20.7 ± 2.2 µM (cell viability, resazurin; 24 h).
CCC[C@H](NC(=O)[C@H](CC(C)C)NC(=O)OCc1ccccc1)C(=O)C(=O)NCc1ccccn1 gave a CC50 of 60.3 ± 8.3 µM (6 days).
With O=C(CNCCC1CCN(Cc2ccccc2)CC1)Nn1c2ccccc2c2ccccc21 the CC50 was 7 µM.
CC[C@H](C)[C@@H]1NC(=O)[C@H](C)NC(=O)[C@H](C)NC(=O)[C@H]([C@@H](C)O)NC(=O)[C@H](Cc2ccccc2)NC(=O)[C@@H]2CSSC[C@@H]3NC(=O)[C@H](C(C)C)NC(=O)[C@H](C)NC(=O)[C@H](CO)NC(=O)[C@H](CCCCN)NC(=O)[C@@H]4CSSC[C@H](NC(=O)[C@H](CO)NC(=O)[C@H](CCC(=O)O)NC(=O)CNC(=O)[C@H](CSSC[C@H](NC(=O)CNC1=O)C(=O)N[C@@H](CO)C(=O)N4)NC(=O)[C@@H]1CCCN1C(=O)[C@H](Cc1ccccc1)NC(=O)CNC(=O)[C@H](CC(N)=O)NC(=O)[C@H](CCCCN)NC(=O)[C@H](Cc1ccc(O)cc1)NC3=O)C(=O)N[C@@H](C(C)C)C(=O)N[C@@H](Cc1ccc(O)cc1)C(=O)N[C@@H](CC(C)C)C(=O)N1CCC[C@H]1C(=O)N2 has a CC50 of 1.24 ± 0.06 µM (resazurin; 24 h).
With CC[C@H](C)[C@@H]1NC(=O)[C@H](CCCCN)NC(=O)[C@H](CCCCN)NC(=O)[C@H](Cc2ccc(O)cc2)NC(=O)[C@H](CC(C)C)NC(=O)[C@@H]2CCCN2C(=O)[C@H](C)NC(=O)CNC(=O)CNC(=O)[C@H](CO)NC(=O)CNC(=O)CNC(=O)[C@H](CO)NC(=O)[C@H]([C@@H](C)O)NC(=O)[C@H](CC(C)C)NC(=O)[C@H](CC(C)C)NC(=O)[C@H](C)NC(=O)[C@H](Cc2c[nH]c3ccccc23)NC(=O)[C@H](Cc2ccc(O)cc2)NC(=O)[C@H](Cc2c[nH]cn2)NC(=O)[C@H](CCC(=O)O)NC(=O)[C@H](Cc2ccccc2)NC(=O)[C@H]([C@@H](C)O)NC(=O)[C@H](CC(C)C)NC(=O)[C@@H]2CCCN2C(=O)CNC(=O)CNC(=O)CSC[C@@H](C(N)=O)NC(=O)[C@H](CC(C)C)NC(=O)[C@H](CCCCN)NC(=O)[C@H](CCCCN)NC(=O)[C@H]([C@@H](C)CC)NC1=O the CC50 was greater than 32 µM (cell viability, resazurin; 24 h).
With CSCC[C@@H](C=O)NC(=O)[C@H](CC(C)C)NC(=O)[C@H](CC(C)C)NC(C)=O the CC50 was greater than 100 µM (6 days).
With CCOC(=O)CCCCCCNC1c2ccccc2N(C)S(=O)(=O)c2ccsc21 (centres unmarked) the CC50 was 96 µM.

A few entries again:
With CC[C@H](C)[C@@H]1NC(=O)[C@H](C)NC(=O)[C@H](C)NC(=O)[C@H]([C@@H](C)O)NC(=O)[C@H](Cc2ccccc2)NC(=O)[C@@H]2CSSC[C@@H]3NC(=O)[C@H](C(C)C)NC(=O)[C@H](CCCCN)NC(=O)[C@H](CO)NC(=O)[C@H](CCCCN)NC(=O)[C@@H]4CSSC[C@H](NC(=O)[C@H](CO)NC(=O)[C@H](CCC(=O)O)NC(=O)[C@H](C)NC(=O)[C@H](CSSC[C@H](NC(=O)CNC1=O)C(=O)N[C@@H](CO)C(=O)N4)NC(=O)[C@@H]1CCCN1C(=O)[C@H](Cc1ccccc1)NC(=O)CNC(=O)[C@H](CC(N)=O)NC(=O)[C@H](CCCCN)NC(=O)[C@H](Cc1ccc(O)cc1)NC3=O)C(=O)N[C@@H](C(C)C)C(=O)N[C@@H](Cc1ccc(O)cc1)C(=O)N[C@@H](CC(C)C)C(=O)N1CCC[C@H]1C(=O)N2 the CC50 was 1.29 ± 0.06 µM (resazurin; 24 h).
